Published values collected from several papers.
Each numbered part is a random draw from the data of one study; scales do not carry over between parts.

Set 1
Target: Protein max, full length (MAX, Homo sapiens, UniProt P61244-2, residues 1-151)
Technique: protein-binding microarray
Form: double-stranded DNA, one strand shown
Medium: in vitro
Concentration: not given
Setting: k-mer, scored over probes, only values ≥0.25
Reading: higher = stronger binding
Oligonucleotide | E-score
ACGGGTCA | 0.252
AAGCACAC | 0.285
GGCAACAC | 0.251

Set 2
Target: Sal-like protein 4, full length isoform A (SALL4, Homo sapiens, UniProt Q9UJQ4, residues 1-1053)
Sequence of UniProt Q9UJQ4 (whole entry, looked up): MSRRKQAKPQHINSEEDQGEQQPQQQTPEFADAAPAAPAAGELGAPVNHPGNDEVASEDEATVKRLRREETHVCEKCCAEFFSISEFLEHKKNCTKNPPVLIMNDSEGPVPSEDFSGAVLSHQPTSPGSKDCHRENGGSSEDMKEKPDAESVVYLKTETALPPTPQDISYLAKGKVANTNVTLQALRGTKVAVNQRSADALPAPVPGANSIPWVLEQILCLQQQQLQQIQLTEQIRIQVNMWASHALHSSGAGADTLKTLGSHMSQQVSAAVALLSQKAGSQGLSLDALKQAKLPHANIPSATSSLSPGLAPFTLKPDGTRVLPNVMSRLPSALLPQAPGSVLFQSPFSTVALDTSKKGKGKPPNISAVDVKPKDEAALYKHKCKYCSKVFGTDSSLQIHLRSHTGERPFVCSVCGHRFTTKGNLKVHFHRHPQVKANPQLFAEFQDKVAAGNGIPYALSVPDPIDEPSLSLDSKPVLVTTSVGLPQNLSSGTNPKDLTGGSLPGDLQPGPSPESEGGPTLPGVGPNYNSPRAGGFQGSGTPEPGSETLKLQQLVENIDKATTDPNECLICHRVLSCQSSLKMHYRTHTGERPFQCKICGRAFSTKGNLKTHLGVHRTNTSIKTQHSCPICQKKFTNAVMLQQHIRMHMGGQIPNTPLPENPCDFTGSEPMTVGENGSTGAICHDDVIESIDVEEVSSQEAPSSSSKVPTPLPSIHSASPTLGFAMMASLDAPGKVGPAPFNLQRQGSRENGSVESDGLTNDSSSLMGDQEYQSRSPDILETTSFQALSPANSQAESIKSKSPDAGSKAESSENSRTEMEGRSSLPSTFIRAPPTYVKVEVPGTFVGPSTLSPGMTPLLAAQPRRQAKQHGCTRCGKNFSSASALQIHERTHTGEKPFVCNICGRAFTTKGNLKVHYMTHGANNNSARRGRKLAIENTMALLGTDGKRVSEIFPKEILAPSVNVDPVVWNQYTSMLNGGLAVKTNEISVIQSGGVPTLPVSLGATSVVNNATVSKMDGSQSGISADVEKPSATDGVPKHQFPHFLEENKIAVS
Technique: universal PBM
Form: double-stranded DNA, one strand shown
Medium: in vitro
Concentration: 600 nM
Setting: 8-mer, flanks averaged, mean of replicates
Reading: higher = stronger binding
Oligonucleotide | E-score
GAACGGTA | -0.0434
CAAATCGG | -0.00891
AGTGCGCA | -0.134

Set 3
Target: Histone acetyltransferase KAT6A, winged helix 1, GST fusion (KAT6A, Homo sapiens, UniProt Q92794, residues 1-85)
Technique: protein binding microarray
Form: double-stranded DNA, one strand shown
Medium: in vitro
Concentration: not given
Setting: 8-mer, flanks averaged, mean of 2 arrays, mostly near background
Relative to: not given
Reading: higher = stronger binding
Target sequence (chain): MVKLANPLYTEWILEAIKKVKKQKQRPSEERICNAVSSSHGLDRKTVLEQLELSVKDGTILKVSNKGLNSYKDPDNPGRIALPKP
Oligonucleotide | E-score
ACTCATAA | -0.0765
GTAGCATA | 0.0539
GGGGTCCA | -0.0115
ACCCGCGG | 0.433

Mixed results
Substance | target | test | system | conditions | scale | quantity | value
PhoQ, residues 284 288 289 292 302 303 NLMGRA | PhoP, residues 12 14 15 18 19 NQAHL (Escherichia coli, UniProt P23836) | Sort-seq, item: YFP reporter | E. coli | PhoQ-PhoP variant library, with: 10 µM Mg2+ | relative to: high Mg2+ state, higher = stronger signaling | fold induction | 1.72

For quick reference, copied from above (set 3):
Oligonucleotide | E-score
ACCCGCGG | 0.433
